# Assay results pooled from the literature.
# ± marks the error that the study gave.
SMILES,system,conditions,AUC(0-inf)
CN1CCc2nc(C(=O)N[C@@H]3C[C@@H](C(=O)N(C)C)CC[C@@H]3NC(=O)C(=O)Nc3ccc(Cl)cn3)sc2C1,"human, plasma","60 mg, fed, together with: dronedarone",1680 ng·h/mL
COc1ccc(C[C@@H](C)[C@@H](C)Cc2ccc(OC)c(OC)c2)cc1OC,"human patients, fasted","oral, 3600 mg, cycle 1 day 1",2600 ± 2300 ng·h/mL
CNC(=O)c1ccc(-c2cnc3ncc(Cc4ccc5ncccc5c4)n3n2)cc1F,"healthy human subjects, plasma","oral, 400 mg, adjusted geometric mean, alone",11500 ng·h/mL
CO[C@H]1C[C@@H]2CC[C@@H](C)[C@@](O)(O2)C(=O)C(=O)N2CCCC[C@H]2C(=O)O[C@H]([C@H](C)C[C@@H]2CC[C@@H](O)[C@H](OC)C2)CC(=O)[C@H](C)/C=C(\C)[C@@H](O)[C@@H](OC)C(=O)[C@H](C)C[C@H](C)/C=C/C=C/C=C/1C,"human, whole blood","oral, 16 mg, without ketoconazole",1460 ng·h/mL
COc1cc(OC)c(/C=C/S(=O)(=O)Cc2ccc(OC)c(NCC(=O)O)c2)c(OC)c1,"human, patients with urinary symptoms, urine","oral, 560 mg",5890 ng·h/mL
CC#CC(=O)NCCCC(=O)c1nc(-c2ccc(C(=O)Nc3ccccn3)cc2)c2c(N)nccn12,"human, healthy control, plasma","oral, 50 mg acalabrutinib, single, geometric mean",817 ng·h/mL
CC(=O)O[C@H]1C(=O)[C@@]2(C)[C@H]([C@H](OC(=O)c3ccccc3)[C@]3(O)C[C@H](OC(=O)[C@H](O)[C@@H](NC(=O)c4ccccc4)c4ccccc4)C(C)=C1C3(C)C)[C@]1(OC(C)=O)CO[C@@H]1C[C@@H]2O,"human patients on nelfinavir alone, plasma","iv, 100 mg/m^2 over 3 h, cycle 1",5.8 ± 2.2 µM·h
CCOc1cc([C@@H](CS(C)(=O)=O)N2C(=O)c3cccc(NC(C)=O)c3C2=O)ccc1OC,"healthy human, male, plasma","oral, 20 mg single dose, together with: ketoconazole multiple doses",2830 ng·h/mL
NCCCS(=O)(=O)O,"human, plasma","oral, 100 mg modified-release tablet, single dose",2040 ± 712 ng·h/mL
CCCCC[C@H](O)CC[C@@H]1[C@H]2Cc3cccc(OCC(=O)O)c3C[C@H]2C[C@H]1O,"human Japanese PAH patients, plasma","inhalation, 54 µg four times daily, week 12",1.05 ± 0.6 ng·h/mL
C[C@@H](c1nc(-c2ccc(C#N)cc2)cs1)[C@](O)(Cn1cncn1)c1cc(F)ccc1F,"human, both sexes, plasma","oral, 200 mg single dose, together with: ketoconazole 200 mg BID",466000 ng·h/mL
CN[C@@H]1COc2c(S(=O)(=O)NC(=O)Nc3c4c(cc5c3CCC5)CCC4)cnn2C1,human,"oral, 600 mg, fasted, mean",173000 ng·h/mL
CC(C)c1nc(N(C)S(C)(=O)=O)nc(-c2ccc(F)cc2)c1/C=C/[C@@H](O)C[C@@H](O)CC(=O)O,"humans, plasma","oral, 20 mg, geometric mean, together with: fenebrutinib 200 mg twice daily",228 ng·h/mL
CN(Cc1cnc2nc(N)nc(N)c2n1)c1ccc(C(=O)N[C@@H](CCC(=O)O)C(=O)O)cc1,"human, plasma","oral, 20 mg, alone, mean",2960 ng·h/mL
CCCOc1ccc(S(=O)(=O)NCCC2CCCN2C)cc1-c1nc2c(CCC)nn(C)c2c(=O)[nH]1 (stereo not shown),"healthy male humans, plasma","oral, 200 mg, together with: dapoxetine 60 mg",4560 ± 1250 ng·h/mL
CC(C)C[C@H](NC(=O)[C@H](CCc1ccccc1)NC(=O)CN1CCOCC1)C(=O)N[C@@H](Cc1ccccc1)C(=O)N[C@@H](CC(C)C)C(=O)[C@@]1(C)CO1,"human patients, plasma","intravenous infusion 10 min, 20 mg/m^2, day 1 of cycle 1, KRd regimen",326 ± 73.5 ng·h/mL
CNC(=O)c1ccc(-c2cnc3ncc(Cc4ccc5ncccc5c4)n3n2)cc1F,human severe hepatic impairment,"oral, 200 mg single dose, adjusted geometric mean",7720 ng·h/mL
O=C(/C=C/c1cccc(S(=O)(=O)Nc2ccccc2)c1)NO,"human moderate liver dysfunction, plasma","intravenous, 400 mg/m^2, 30 min infusion, cycle 1 day -7",13900 ng·h/mL
O=c1[nH]c(=O)c(Cc2cccc(C(F)(F)F)c2)c([C@H]2CC[C@H](c3ccccc3)CC2)[nH]1,"human, fasted, plasma","oral, 300 mg single dose, geometric mean",3080 ng·h/mL
Cc1nc2c(F)cc(-c3nc(Nc4ccc(CN5CCNCC5)cn4)ncc3F)cc2n1C(C)C,human patients,"oral, 150 mg single, geometric mean",1290 ng·h/mL
CCOc1cc([C@@H](CS(C)(=O)=O)N2C(=O)c3cccc(NC(C)=O)c3C2=O)ccc1O[C@@H]1O[C@H](C(=O)O)[C@@H](O)[C@H](O)[C@H]1O,"healthy human controls, plasma","oral, 30 mg apremilast, matched to moderate impairment",4880 ng·h/mL
CCCC[C@H](NC(C)=O)C(=O)N[C@H]1CCC(=O)NC[C@@H](C(=O)N[C@@H](Cc2c[nH]c3ccccc23)C(N)=O)NC(=O)[C@H](CCCNC(=N)N)NC(=O)[C@@H](Cc2ccccc2)NC(=O)[C@H](Cc2c[nH]cn2)NC1=O,"healthy human, both sexes, plasma","subcutaneous, 1.0 mg once daily, day 1, geometric mean",50.9 ng·h/mL
C=CC(=O)N1CCC([C@@H]2CCNc3c(C(N)=O)c(-c4ccc(Oc5ccccc5)cc4)nn32)CC1,human,"oral, 480 mg single dose, mean",2670 ng·h/mL
NS(=O)(=O)OC[C@@H]1C[C@@H](n2ccc3c(N[C@H]4CCc5ccccc54)ncnc32)C[C@@H]1O,human,"intravenous, 20 mg/m^2 single dose, day 8, together with: itraconazole",1130 ng·h/mL
COC(=O)c1ccc2c(c1)NC(=O)/C2=C(\Nc1ccc(N(C)C(=O)CN2CCN(C)CC2)cc1)c1ccccc1,"healthy human controls matched to Child-Pugh B, plasma","oral, 100 mg single dose, fed, adjusted geometric mean",77.8 ng·h/mL
CCCc1nn(C)c2c(=O)[nH]c(-c3cc(S(=O)(=O)N4CCN(C)CC4)ccc3OCC)nc12,"human, male, plasma","oral, dose not given, day 8, together with: sacubitril/valsartan",576 ng·h/mL
Cc1ccc(NC(=O)c2ccc(CN3CCN(C)CC3)cc2)cc1Nc1nccc(-c2cccnc2)n1,"human patients, plasma","oral, 400 mg/day, day 14 of cycle 1, together with: IL-2 6 MIU/day days 10-14",94600 ng·h/mL
C=C(C)[C@@H]1CC[C@]2(NCCN3CCS(=O)(=O)CC3)CC[C@]3(C)[C@H](CC[C@@H]4[C@@]5(C)CC=C(C6=CC[C@@](CF)(C(=O)O)CC6)C(C)(C)[C@@H]5CC[C@]43C)[C@@H]12,healthy human volunteers,"oral, 200 mg, tablet, moderate-fat meal, arithmetic mean",39400 ng·h/mL
CC(=O)N1CCN(c2ccc(OCC3COC(Cn4ccnc4)(c4ccc(Cl)cc4Cl)O3)cc2)CC1 (stereo not shown),healthy male human,"oral, 200 mg, single dose alone",10300 ng·h/mL
C=CC(=O)Nc1cc(Nc2ncc(C(=O)OC(C)C)c(-c3cn(C)c4ccccc34)n2)c(OC)cc1N(C)CCN(C)C,"human, plasma","oral, 160 mg, arithmetic mean, alone",1360 ng·h/mL
COc1cc2ncnc(Nc3ccc(F)c(Cl)c3)c2cc1OCCCN1CCOCC1,"human, plasma","oral, 250 mg, together with: vorinostat 200 mg",8.67 ± 3.06 ng·h/mL
C=CC(=O)Nc1cc(Nc2ncc(C(=O)OC(C)C)c(-c3cn(C)c4ccccc34)n2)c(OC)cc1N(C)CCN(C)C,"human, fasted","oral, 80 mg single dose, geometric mean",257 ng·h/mL
CCOC(=O)C1=C[C@@H](OC(CC)CC)[C@H](NC(C)=O)[C@@H](N)C1,"healthy Indian human, plasma","oral, 75 mg single, test capsule fed",155 ± 32 ng·h/mL
CCCS(=O)(=O)N[C@H]1C[C@@H](N(C)c2ncnc3[nH]ccc23)C1,"humans, moderate hepatic impairment","oral, 200 mg single",8600 ng·h/mL
CNC(=O)c1c(C)oc2cc(Oc3ncnc4cc(OC)c(OC)cc34)ccc12,"human, plasma","oral, 5 mg, fasted",5060 ng·h/mL
CC(=O)Nc1ccc(O[C@@H]2O[C@H](C(=O)O)[C@@H](O)[C@H](O)[C@H]2O)cc1,healthy human volunteers,"oral, 650 mg, day 1, acetaminophen alone",81600 ng·h/mL
CC(=O)O[C@H]1C(=O)[C@@]2(C)[C@H]([C@H](OC(=O)c3ccccc3)[C@]3(O)C[C@H](OC(=O)[C@H](O)[C@@H](NC(=O)c4ccccc4)c4ccccc4)C(C)=C1C3(C)C)[C@]1(OC(C)=O)CO[C@@H]1C[C@@H]2O,"human, plasma","intravenous, 175 mg/m², cycle 1, together with: carboplatin, ritonavir",50.2 µM·h
CCc1nc(C(N)=O)c(Nc2ccc(N3CCC(N4CCN(C)CC4)CC3)c(OC)c2)nc1NC1CCOCC1,"human, normal hepatic function, plasma","oral, 10 mg, single dose, fasted, geometric LS mean",549 ng·h/mL
CC(C)NC[C@@H](C(=O)N1CCN(c2ncnc3c2[C@H](C)C[C@H]3O)CC1)c1ccc(Cl)cc1,"human, matched normal hepatic function (Child-Pugh), plasma","oral, 100 mg single, reference geometric mean, vs Mild",360 ng·h/mL
COc1cc(Nc2c(C#N)cnc3cc(OCCCN4CCN(C)CC4)c(OC)cc23)c(Cl)cc1Cl,"human, normal hepatic function (Child-Pugh), plasma","single dose, geometric mean, total drug",864 ng·h/mL
CC(C)[C@@H](CS(=O)(=O)C(C)C)N1C(=O)[C@@](C)(CC(=O)O)C[C@H](c2cccc(Cl)c2)[C@H]1c1ccc(Cl)cc1,"human, plasma","oral, 60 mg, old tablet, fasted, geometric LS mean",2520 ng·h/mL
Cc1ccc(NC(=O)c2ccc(CN3CCN(C)CC3)cc2)cc1Nc1nccc(-c2cncc(-c3oncc3C)c2)n1,"older healthy human adults, plasma","oral, 325 mg single dose, fed, mean",244000 ng·h/mL
Cc1cc(C)c2c(c1)[C@@H](N(Cc1cc(C(F)(F)F)cc(C(F)(F)F)c1)c1nnn(C)n1)CCCN2C[C@H]1CC[C@H](C(=O)O)CC1,"healthy humans, plasma","oral, 100 mg, geometric mean, together with: ketoconazole 400 mg",12100 ng·h/mL
